Measurements gathered from unrelated publications.
Compare with care: the assays were run in different laboratories. ± marks the error that the study gave.
CNR2: Cannabinoid receptor 2 (CNR2, Homo sapiens, UniProt P34972)
Sequence of UniProt P34972 (whole entry, looked up): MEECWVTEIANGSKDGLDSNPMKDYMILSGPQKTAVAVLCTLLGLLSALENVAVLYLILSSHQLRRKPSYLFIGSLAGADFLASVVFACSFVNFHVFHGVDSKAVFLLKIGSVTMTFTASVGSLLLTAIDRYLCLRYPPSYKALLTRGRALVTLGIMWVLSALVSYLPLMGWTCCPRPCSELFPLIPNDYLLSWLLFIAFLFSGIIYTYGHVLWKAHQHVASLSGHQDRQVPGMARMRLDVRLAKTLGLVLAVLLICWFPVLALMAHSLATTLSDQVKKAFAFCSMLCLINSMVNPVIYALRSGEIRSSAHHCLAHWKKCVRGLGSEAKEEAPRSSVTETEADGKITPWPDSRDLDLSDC
C3AR1: C3a anaphylatoxin chemotactic receptor (C3AR1, Homo sapiens, UniProt Q16581)
Sequence of UniProt Q16581 (whole entry, looked up): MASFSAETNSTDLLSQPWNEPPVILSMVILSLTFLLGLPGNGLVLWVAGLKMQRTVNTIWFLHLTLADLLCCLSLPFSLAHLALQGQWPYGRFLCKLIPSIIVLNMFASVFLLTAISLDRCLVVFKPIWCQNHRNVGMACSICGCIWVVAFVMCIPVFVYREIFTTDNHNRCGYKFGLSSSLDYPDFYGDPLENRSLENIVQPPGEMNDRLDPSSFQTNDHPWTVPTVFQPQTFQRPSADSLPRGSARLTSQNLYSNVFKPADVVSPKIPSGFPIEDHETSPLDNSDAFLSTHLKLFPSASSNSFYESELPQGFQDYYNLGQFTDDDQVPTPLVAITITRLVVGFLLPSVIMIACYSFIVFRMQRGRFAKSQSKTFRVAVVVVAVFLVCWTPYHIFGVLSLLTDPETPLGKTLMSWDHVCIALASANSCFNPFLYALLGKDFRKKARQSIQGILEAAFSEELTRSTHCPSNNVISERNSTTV
GNRHR: Gonadotropin-releasing hormone receptor (GNRHR, Homo sapiens, UniProt P30968)
Sequence of UniProt P30968 (whole entry, looked up): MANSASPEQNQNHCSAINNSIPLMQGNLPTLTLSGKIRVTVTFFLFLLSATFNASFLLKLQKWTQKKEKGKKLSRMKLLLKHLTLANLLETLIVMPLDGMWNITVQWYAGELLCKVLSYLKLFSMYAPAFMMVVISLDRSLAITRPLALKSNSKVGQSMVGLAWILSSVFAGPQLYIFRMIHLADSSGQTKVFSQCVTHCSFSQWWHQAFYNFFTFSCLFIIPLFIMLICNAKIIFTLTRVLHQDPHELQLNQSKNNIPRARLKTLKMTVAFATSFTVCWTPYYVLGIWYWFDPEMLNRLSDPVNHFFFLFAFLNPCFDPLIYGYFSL
Sequence of UniProt Q969F8 (whole entry, unmodified, looked up): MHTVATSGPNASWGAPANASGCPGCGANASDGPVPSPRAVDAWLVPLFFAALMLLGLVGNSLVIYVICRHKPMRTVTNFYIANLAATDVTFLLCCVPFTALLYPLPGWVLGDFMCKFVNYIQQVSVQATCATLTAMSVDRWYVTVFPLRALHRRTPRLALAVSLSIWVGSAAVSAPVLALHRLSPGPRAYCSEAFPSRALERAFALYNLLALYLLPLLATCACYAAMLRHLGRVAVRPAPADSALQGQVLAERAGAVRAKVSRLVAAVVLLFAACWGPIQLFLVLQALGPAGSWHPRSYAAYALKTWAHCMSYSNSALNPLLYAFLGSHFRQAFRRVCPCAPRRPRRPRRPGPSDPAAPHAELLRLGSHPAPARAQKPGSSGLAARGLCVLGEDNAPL
Sequence of UniProt P07026 (whole entry, looked up): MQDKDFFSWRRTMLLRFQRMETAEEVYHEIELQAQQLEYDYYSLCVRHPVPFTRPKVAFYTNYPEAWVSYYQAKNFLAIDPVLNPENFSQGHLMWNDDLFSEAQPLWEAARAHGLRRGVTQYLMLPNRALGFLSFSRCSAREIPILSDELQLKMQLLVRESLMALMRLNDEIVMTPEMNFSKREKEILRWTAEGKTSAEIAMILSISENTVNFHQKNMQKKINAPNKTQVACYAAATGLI
Sequence of UniProt O43193 (whole entry, unmodified, looked up): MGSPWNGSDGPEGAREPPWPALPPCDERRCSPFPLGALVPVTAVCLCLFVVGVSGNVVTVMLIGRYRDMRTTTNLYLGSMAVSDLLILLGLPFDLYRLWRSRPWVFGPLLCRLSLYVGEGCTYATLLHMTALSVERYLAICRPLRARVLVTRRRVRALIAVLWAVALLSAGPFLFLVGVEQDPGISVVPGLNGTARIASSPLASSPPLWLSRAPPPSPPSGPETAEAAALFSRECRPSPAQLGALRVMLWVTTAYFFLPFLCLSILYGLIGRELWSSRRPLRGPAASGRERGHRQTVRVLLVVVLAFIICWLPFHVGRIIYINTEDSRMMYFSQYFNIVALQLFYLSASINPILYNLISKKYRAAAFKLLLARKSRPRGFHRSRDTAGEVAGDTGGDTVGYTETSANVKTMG
Sequence of UniProt Q9NSD7 (whole entry, unmodified, looked up): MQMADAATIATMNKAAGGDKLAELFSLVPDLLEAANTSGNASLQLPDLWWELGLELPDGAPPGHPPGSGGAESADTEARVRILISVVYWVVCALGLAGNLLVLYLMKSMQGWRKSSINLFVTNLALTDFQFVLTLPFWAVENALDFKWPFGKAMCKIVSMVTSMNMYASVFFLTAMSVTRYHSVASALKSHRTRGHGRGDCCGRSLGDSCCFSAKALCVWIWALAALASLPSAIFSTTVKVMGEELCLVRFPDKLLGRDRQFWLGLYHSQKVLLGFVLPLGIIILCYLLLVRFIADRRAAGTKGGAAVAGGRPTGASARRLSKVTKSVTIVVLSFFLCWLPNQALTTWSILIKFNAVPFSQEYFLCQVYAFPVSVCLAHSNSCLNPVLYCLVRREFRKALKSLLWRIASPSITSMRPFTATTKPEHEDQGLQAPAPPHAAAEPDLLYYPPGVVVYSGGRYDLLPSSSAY
Sequence of UniProt Q8TDU9 (whole entry, unmodified, looked up): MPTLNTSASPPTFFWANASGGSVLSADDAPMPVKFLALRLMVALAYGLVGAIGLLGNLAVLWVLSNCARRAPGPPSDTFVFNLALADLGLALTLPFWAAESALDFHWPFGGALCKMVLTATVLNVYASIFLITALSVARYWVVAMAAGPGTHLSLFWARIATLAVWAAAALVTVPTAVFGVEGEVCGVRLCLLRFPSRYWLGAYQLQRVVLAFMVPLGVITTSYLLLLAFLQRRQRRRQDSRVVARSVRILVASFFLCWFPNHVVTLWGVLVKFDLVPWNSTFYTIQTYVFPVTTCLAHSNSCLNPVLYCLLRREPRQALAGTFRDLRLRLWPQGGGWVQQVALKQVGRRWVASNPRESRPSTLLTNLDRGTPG
Sequence of UniProt Q92847 (whole entry, unmodified, looked up): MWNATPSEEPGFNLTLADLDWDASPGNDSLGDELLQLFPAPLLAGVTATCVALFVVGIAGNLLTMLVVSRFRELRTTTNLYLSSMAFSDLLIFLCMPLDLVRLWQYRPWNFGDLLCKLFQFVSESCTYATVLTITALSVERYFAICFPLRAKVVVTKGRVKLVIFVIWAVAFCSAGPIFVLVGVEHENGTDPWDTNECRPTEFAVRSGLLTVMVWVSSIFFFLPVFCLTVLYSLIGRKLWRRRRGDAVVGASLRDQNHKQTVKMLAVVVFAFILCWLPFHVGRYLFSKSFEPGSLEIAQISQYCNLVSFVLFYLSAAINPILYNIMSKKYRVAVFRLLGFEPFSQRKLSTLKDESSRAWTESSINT

CCOC(=O)C(CC)(CCCSCCOCCOCCN)NC(=O)c1ccc(C2CC2)c(Cc2ccc(F)cc2)n1 (racemic)
Emax (CNR2; cAMP, agonist): 92%

COc1ccc(C(=O)c2c(C(=O)NCCCN(C)C)oc3ccc(Cl)cc3c2=O)cc1OC
Emax (GHSR (Homo sapiens, UniProt Q92847, P200A); intracellular Ca2+, agonist; HEK293T transiently transfected): 70.2 ± 9.9%

COc1cc(C2C(NC(=O)c3ccc(NC(=O)OC(C)(C)C)cc3)(C(=O)O)C(c3ccc(OC(=O)c4cccs4)c(OC)c3)C2(NC(=O)c2ccc(NC(=O)OC(C)(C)C)cc2)C(=O)O)ccc1OC(=O)c1cccs1 (stereo not shown)
Emax (GLP1R (Homo sapiens, UniProt P43220, F381A); cAMP accumulation, agonist; receptor mutant; baseline: wild type): 99.1 ± 4.66%

CCOC(=O)[C@@](CC)(CCCSCCOCCOCCNC(=O)OC(C)(C)C)NC(=O)c1ccc(C2CC2)c(Cc2ccc(F)cc2)n1
Emax (CNR2; cAMP, agonist): 86%

CC[C@H](C)[C@H](NC(=O)[C@@H]1CCCN1C(=O)[C@@H](NC(=O)[C@@H](N)Cc1ccccc1)C(C)C)C(=O)N[C@@H](Cc1ccccc1)C(=O)N[C@H](C(=O)N[C@@H](Cc1ccc(O)cc1)C(=O)NCC(=O)N[C@@H](CCC(=O)O)C(=O)N[C@@H](CC(C)C)C(=O)N[C@@H](CCC(N)=O)C(=O)N[C@@H](CCCNC(=N)N)C(=O)N[C@@H](CCSC)C(=O)N[C@@H](CCC(N)=O)C(=O)N[C@@H](CCC(=O)O)C(=O)N[C@@H](CCCCN)C(=O)N[C@@H](CCC(=O)O)C(=O)N[C@@H](CCCNC(=N)N)C(=O)N[C@@H](CC(N)=O)C(=O)N[C@@H](CCCCN)C(=O)NCC(=O)N[C@@H](CCC(N)=O)C(=O)O)[C@@H](C)O
Emax (Motilin receptor (MLNR, Homo sapiens, UniProt O43193, del183-219); IP1 accumulation, agonist, IP-One HTRF; AD293 cells; 1 h, 37 °C): 149 ± 9.3%

CCc1cc(O)cc2c(/C=N/NC(=N)NCCc3ccc(Cl)cc3)c[nH]c12
Emax (RXFP4 (Homo sapiens, UniProt Q8TDU9, T295V); HEK-293T; baseline: wild type): 45.3 ± 2.64%

CC(C)C[C@H](NC(=O)[C@H](C)NC(=O)[C@H](CO)NC(=O)[C@@H]1CCCN1C(=O)[C@@H]1CCCN1C(=O)[C@H](CCC(N)=O)NC(=O)[C@H](CC(C)C)NC(=O)[C@@H](N)[C@@H](C)O)C(=O)N[C@@H](CCCNC(=N)N)C(=O)N[C@@H](CCCNC(=N)N)C(=O)N[C@@H](CCCNC(=N)N)C(=O)N[C@@H](Cc1c[nH]cn1)C(=O)N[C@@H](Cc1ccc(O)cc1)C(=O)N[C@@H](Cc1c[nH]cn1)C(=O)N[C@@H](Cc1c[nH]cn1)C(=O)N[C@@H](C)C(=O)N[C@@H](CC(C)C)C(=O)N1CCC[C@H]1C(=O)N1CCC[C@H]1C(=O)N[C@@H](CO)C(=O)N[C@@H](CCCNC(=N)N)C(=O)O
Emax (C3AR1; cAMP response, agonist, GloSensor; baseline: TLQP-21): 57.1 ± 3.48%

CC[C@H](C)[C@@H]1NC(=O)[C@H](Cc2ccccc2)NC(=O)[C@H](CCC(=O)O)NC(=O)[C@H](CCCNC(=N)N)NC(=O)CNC(=O)[C@@H](NC(=O)[C@H](CC(C)C)NC(=O)[C@H](CCCNC(=N)N)NC(=O)[C@@H](NC(=O)CNC(=O)[C@H](Cc2ccc(O)cc2)NC(=O)[C@@H]2CCCN2C(=O)[C@H](C)NC(=O)[C@H](C)NC(=O)[C@@H](N)CCCNC(=N)N)C(C)C)CSSC[C@@H]2NC(=O)[C@@H](NC(=O)[C@H](CO)NC(=O)[C@H](CO)NC(=O)[C@H](CO)NC(=O)[C@H](CC(C)C)NC(=O)CNC(=O)[C@H](C)NC(=O)[C@H](CC(C)C)NC(=O)[C@@H](NC(=O)[C@@H](N)CC(=O)O)C(C)C)CSSC[C@H](NC(=O)CNC(=O)[C@H](Cc3c[nH]c4ccccc34)NC(=O)[C@H](CCCCN)NC2=O)C(=O)N[C@@H](CO)C(=O)N[C@@H](CCCCN)C(=O)N[C@@H](CO)C(=O)N[C@@H](CCC(=O)O)C(=O)N[C@@H]([C@@H](C)CC)C(=O)N[C@@H](CO)C(=O)N[C@@H](CO)C(=O)N[C@@H](CC(C)C)C(=O)N[C@H](C(=O)O)CSSC[C@@H](C(=O)NCC(=O)NCC(=O)N[C@@H](CO)C(=O)N[C@@H](CCCNC(=N)N)C(=O)N[C@@H](Cc2c[nH]c3ccccc23)C(=O)O)NC(=O)[C@H]([C@@H](C)O)NC(=O)[C@H](Cc2ccccc2)NC(=O)[C@H]([C@@H](C)CC)NC(=O)[C@H](C(C)C)NC(=O)[C@H](C)NC(=O)[C@H](CCCNC(=N)N)NC1=O
Emax (RXFP3 (Homo sapiens, UniProt Q9NSD7, W138A); HEK-293T; baseline: wild type): 36.5 ± 5.72%

CCOC(=O)[C@](CC)(CCCSCCOCCOCCNC(=O)CCCCCN1C(=CC=CC=CC2=[N+](C)c3ccc4ccccc4c3C2(C)C)C(C)(C)c2c1ccc1ccccc21)NC(=O)c1ccc(C2CC2)c(Cc2ccc(F)cc2)n1.[Cl-]
Emax (CNR2; cAMP, agonist): 110%

CC(C)C[C@H](NC(=O)[C@@H](Cc1c[nH]c2ccccc12)NC(=O)[C@H](Cc1ccc(O)cc1)NC(=O)[C@H](CO)NC(=O)[C@H](Cc1c[nH]c2ccccc12)NC(=O)[C@H](Cc1c[nH]cn1)NC(=O)[C@@H]1CCC(=O)N1)C(=O)N[C@@H](CCCNC(=N)N)C(=O)N1CCC[C@H]1C(=O)NCC(N)=O
Emax (GNRHR; inositol phosphate, agonist, TR-FRET; HEK-293T; 1 h): 100%

O=C(Cc1ccc([N+](=O)[O-])cc1)N[C@H]1CCOC1=O
Emax (Regulatory protein SdiA (sdiA, Escherichia coli, UniProt P07026)): 95%

CNC(=N)NCCC[C@H](NC(=O)[C@H](CC(C)C)NC(=O)NNC(=O)[C@H](Cc1ccccc1)NC(=O)[C@@H](NC(=O)[C@H](CC(N)=O)NC(=O)[C@@H]1C[C@@H](O)CN1C(=O)[C@@H](Cc1ccc(O)cc1)NC(C)=O)[C@@H](C)O)C(=O)N[C@@H](Cc1c[nH]c2ccccc12)C(N)=O
Emax (KiSS-1 receptor (KISS1R, Homo sapiens, UniProt Q969F8, L250G); inositol phosphate, agonist; HEK293): 96.8%

Cc1cc(C(c2ccc(Cl)cc2)c2ccc(Cl)cc2)sc1C(=O)N[C@@H](CCCN=C(N)N)C(=O)O
Emax (C3AR1; GoA dissociation, agonist, NanoBiT G-protein): 61 ± 0.84%

CCOC(=O)C(CC)(CCCSCCOCCN)NC(=O)c1ccc(C2CC2)c(Cc2ccc(F)cc2)n1 (stereo not shown)
Emax (CNR2; cAMP, agonist): 93%

CC(C)C[C@H](NC(=O)[C@@H](N)[C@@H](C)O)C(=O)N[C@@H](CCC(N)=O)C(=O)N1CCC[C@H]1C(=O)N1CCC[C@H]1C(=O)N[C@@H](C)C(=O)N[C@@H](CO)C(=O)N[C@@H](CO)C(=O)N[C@@H](CCCNC(=N)N)C(=O)N[C@@H](CCCNC(=N)N)C(=O)N[C@@H](CCCNC(=N)N)C(=O)N[C@@H](Cc1c[nH]cn1)C(=O)N[C@@H](Cc1ccccc1)C(=O)N[C@@H](Cc1c[nH]cn1)C(=O)N[C@@H](Cc1c[nH]cn1)C(=O)N[C@@H](C)C(=O)N[C@@H](CC(C)C)C(=O)N1CCC[C@H]1C(=O)N1CCC[C@H]1C(=O)N[C@@H](C)C(=O)N[C@@H](CCCNC(=N)N)C(=O)O
Emax (C3AR1; cAMP response, agonist, GloSensor; baseline: TLQP-21): 56.4 ± 2.71%

CCNC(=O)[C@@H]1CCCN1C(=O)[C@H](CCCNC(=N)N)NC(=O)[C@H](CC(C)C)NC(=O)[C@@H](C)NC(=O)[C@H](Cc1ccc(O)cc1)NC(=O)[C@H](CO)NC(=O)[C@H](Cc1c[nH]c2ccccc12)NC(=O)[C@H](Cc1c[nH]cn1)NC(=O)[C@@H]1CCC(=O)N1
Emax (GNRHR; inositol phosphate, agonist, TR-FRET; HEK-293T; 1 h): 100%

Excerpt of the above:
CCc1cc(O)cc2c(/C=N/NC(=N)NCCc3ccc(Cl)cc3)c[nH]c12
Emax (RXFP4 (Homo sapiens, UniProt Q8TDU9, T295V); HEK-293T; baseline: wild type): 45.3 ± 2.64%

CC(C)C[C@H](NC(=O)[C@H](C)NC(=O)[C@H](CO)NC(=O)[C@@H]1CCCN1C(=O)[C@@H]1CCCN1C(=O)[C@H](CCC(N)=O)NC(=O)[C@H](CC(C)C)NC(=O)[C@@H](N)[C@@H](C)O)C(=O)N[C@@H](CCCNC(=N)N)C(=O)N[C@@H](CCCNC(=N)N)C(=O)N[C@@H](CCCNC(=N)N)C(=O)N[C@@H](Cc1c[nH]cn1)C(=O)N[C@@H](Cc1ccc(O)cc1)C(=O)N[C@@H](Cc1c[nH]cn1)C(=O)N[C@@H](Cc1c[nH]cn1)C(=O)N[C@@H](C)C(=O)N[C@@H](CC(C)C)C(=O)N1CCC[C@H]1C(=O)N1CCC[C@H]1C(=O)N[C@@H](CO)C(=O)N[C@@H](CCCNC(=N)N)C(=O)O
Emax (C3AR1; cAMP response, agonist, GloSensor; baseline: TLQP-21): 57.1 ± 3.48%
